Assay results pooled from the literature.
Parts stem from different laboratories: compare values within a part only. Several values in a cell are separate wells, animals, samples, runs or records.
Chain of UniProt Q9HAZ1 (whole entry, looked up): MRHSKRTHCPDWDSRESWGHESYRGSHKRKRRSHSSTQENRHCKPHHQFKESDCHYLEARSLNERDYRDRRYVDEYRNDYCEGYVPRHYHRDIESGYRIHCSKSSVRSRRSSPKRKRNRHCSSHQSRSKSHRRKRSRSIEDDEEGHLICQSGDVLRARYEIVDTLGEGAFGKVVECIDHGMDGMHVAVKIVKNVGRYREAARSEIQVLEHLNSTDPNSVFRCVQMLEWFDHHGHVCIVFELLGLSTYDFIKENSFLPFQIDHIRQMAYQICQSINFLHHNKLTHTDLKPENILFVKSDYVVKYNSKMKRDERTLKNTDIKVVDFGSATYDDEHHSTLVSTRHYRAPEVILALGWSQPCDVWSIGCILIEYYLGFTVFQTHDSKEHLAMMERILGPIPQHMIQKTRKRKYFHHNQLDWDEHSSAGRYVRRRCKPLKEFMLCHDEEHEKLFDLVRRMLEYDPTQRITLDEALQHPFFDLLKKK
Chain of UniProt Q9UIK4 (whole entry, looked up): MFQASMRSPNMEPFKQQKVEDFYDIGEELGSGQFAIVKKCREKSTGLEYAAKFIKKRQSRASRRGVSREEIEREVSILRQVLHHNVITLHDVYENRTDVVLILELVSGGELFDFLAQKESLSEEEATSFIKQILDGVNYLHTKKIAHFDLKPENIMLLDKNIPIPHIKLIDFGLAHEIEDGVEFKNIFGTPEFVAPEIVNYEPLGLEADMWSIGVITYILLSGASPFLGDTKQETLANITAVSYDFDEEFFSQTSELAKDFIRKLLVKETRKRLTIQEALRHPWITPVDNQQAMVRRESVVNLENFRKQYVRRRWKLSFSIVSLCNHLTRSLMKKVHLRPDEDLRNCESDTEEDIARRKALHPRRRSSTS
Chain of UniProt P57078 (whole entry, looked up): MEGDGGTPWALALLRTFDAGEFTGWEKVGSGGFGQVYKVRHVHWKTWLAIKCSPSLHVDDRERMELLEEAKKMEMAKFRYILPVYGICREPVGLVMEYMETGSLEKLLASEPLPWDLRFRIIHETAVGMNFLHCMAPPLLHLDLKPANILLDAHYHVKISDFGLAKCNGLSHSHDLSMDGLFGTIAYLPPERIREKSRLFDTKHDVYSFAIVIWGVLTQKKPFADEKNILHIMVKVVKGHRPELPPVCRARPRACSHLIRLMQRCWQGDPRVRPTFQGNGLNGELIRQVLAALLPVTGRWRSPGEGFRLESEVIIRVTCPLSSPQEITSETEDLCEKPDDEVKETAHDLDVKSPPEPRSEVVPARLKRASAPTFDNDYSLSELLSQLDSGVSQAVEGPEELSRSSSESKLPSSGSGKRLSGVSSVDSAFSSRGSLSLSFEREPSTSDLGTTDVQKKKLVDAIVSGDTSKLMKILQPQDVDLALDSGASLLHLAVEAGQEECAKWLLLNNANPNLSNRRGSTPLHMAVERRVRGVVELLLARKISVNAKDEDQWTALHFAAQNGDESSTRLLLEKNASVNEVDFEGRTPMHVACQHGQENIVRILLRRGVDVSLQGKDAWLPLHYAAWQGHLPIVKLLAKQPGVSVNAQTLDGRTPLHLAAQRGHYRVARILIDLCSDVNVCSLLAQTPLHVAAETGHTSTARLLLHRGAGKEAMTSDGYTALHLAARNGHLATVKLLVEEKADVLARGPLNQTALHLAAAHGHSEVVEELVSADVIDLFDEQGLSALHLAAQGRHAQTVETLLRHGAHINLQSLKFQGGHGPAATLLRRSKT
Chain of UniProt Q96PN8 (whole entry, looked up): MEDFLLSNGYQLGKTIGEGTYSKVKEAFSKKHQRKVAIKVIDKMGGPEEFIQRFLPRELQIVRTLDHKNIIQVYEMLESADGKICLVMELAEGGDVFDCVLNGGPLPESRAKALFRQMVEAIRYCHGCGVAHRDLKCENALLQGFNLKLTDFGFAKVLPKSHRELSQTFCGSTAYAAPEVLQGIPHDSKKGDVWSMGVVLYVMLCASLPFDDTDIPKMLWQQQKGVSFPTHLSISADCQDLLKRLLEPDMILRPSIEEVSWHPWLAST
Chain of UniProt P04049 (whole entry, looked up): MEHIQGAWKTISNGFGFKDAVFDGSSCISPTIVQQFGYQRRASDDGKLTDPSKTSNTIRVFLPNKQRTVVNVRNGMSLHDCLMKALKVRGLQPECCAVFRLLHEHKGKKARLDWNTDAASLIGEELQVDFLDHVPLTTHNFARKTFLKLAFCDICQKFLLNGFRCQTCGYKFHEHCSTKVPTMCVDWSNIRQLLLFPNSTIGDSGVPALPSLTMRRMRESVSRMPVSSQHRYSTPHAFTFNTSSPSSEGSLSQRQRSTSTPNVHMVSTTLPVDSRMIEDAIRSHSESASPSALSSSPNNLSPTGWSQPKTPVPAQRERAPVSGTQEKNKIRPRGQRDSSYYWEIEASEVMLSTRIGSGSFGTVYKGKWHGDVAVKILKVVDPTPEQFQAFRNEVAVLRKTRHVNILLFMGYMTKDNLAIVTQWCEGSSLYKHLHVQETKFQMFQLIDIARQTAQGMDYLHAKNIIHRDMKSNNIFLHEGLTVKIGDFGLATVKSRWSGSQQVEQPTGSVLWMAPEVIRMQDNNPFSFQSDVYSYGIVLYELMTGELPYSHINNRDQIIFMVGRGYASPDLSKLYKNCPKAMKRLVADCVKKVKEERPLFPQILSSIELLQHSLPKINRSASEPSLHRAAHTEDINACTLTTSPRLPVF
Chain of UniProt Q8TD08 (whole entry, looked up): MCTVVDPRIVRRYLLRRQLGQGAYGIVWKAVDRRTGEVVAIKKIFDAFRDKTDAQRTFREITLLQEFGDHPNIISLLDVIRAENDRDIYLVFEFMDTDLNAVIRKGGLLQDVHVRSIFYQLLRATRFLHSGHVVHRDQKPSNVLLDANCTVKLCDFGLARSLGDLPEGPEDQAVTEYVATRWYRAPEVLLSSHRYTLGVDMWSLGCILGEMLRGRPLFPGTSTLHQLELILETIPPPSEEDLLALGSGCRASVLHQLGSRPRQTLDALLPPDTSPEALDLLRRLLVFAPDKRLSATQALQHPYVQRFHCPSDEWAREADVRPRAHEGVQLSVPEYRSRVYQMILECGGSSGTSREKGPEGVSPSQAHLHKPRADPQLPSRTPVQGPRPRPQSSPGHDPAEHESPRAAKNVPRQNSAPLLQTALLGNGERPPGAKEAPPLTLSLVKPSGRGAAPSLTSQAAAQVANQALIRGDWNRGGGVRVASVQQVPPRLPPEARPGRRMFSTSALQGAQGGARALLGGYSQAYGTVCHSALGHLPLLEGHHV
Chain of UniProt Q5VT25 (whole entry, looked up): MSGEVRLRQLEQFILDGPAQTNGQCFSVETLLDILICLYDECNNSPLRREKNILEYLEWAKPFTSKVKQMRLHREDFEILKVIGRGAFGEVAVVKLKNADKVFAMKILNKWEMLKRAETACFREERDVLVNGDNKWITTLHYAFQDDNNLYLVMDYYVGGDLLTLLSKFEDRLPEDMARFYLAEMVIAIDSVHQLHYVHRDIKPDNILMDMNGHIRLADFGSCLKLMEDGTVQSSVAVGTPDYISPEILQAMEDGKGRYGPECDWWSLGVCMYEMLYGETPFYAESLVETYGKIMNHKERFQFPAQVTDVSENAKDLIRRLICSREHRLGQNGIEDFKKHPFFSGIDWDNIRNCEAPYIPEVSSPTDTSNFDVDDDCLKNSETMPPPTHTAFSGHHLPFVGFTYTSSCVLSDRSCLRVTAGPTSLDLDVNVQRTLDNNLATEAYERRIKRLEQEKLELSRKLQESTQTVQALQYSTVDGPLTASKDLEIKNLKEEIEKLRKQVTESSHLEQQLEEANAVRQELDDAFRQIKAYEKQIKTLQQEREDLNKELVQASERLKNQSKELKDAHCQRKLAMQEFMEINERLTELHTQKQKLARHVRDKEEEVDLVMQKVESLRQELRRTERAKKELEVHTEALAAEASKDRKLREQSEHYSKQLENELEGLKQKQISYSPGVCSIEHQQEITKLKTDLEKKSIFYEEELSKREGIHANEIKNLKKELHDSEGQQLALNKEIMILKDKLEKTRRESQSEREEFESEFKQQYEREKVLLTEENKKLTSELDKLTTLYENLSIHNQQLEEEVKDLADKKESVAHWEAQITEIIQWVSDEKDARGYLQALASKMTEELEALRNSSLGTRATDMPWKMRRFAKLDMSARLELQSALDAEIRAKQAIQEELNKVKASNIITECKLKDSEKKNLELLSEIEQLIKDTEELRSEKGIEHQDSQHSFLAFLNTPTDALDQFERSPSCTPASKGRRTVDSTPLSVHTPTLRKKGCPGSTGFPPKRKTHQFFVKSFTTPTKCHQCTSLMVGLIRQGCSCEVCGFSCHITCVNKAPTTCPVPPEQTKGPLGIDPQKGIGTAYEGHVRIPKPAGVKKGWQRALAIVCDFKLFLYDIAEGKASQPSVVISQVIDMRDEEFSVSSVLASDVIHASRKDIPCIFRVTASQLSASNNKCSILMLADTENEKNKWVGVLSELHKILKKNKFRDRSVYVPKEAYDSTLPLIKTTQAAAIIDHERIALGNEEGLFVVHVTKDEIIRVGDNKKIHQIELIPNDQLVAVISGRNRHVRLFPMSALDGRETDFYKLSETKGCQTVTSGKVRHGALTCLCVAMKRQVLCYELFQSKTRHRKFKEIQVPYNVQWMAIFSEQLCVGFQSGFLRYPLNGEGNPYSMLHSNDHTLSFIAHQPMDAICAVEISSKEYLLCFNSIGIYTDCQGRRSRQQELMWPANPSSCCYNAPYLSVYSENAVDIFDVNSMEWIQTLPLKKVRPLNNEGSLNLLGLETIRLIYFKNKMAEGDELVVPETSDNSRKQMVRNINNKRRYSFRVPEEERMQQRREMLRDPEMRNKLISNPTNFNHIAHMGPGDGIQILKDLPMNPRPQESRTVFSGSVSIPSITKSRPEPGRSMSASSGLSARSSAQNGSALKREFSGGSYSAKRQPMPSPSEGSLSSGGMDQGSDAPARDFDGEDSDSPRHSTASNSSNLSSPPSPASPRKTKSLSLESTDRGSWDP

Block 1
Cell line: HaCaT
Tested at: 100 µM
Time: 36 h
Quantity: viability
COc1ccccc1OCC(O)COC(N)=O (centres unmarked): 98.3%
Cn1c(=O)c2c(ncn2CC(=O)O)n(C)c1=O: 94.3%
O=C1O[C@H]([C@@H](O)CO)C(O)=C1O: 90.8%
C[C@@H](O)[C@H]1C(=O)N2C(C(=O)O)=C(SCCN=CN)C[C@H]12: 96.8%
COc1ccc(-c2nc3ccc(C4=NNC(=O)CC4C)cc3[nH]2)cc1 (centres unmarked): 9.11%
COc1ccc(CN(CCN(C)C)c2ccccn2)cc1: 94.4%
CCCCCCNC(=O)n1cc(F)c(=O)[nH]c1=O: 42.8%
CN1C2=CC(=O)/C(=N\NC(N)=O)C=C2CC1S(=O)(=O)O (centres unmarked): 87.2%
COc1cc2nccc(Oc3ccc(NC(=O)C4(C(=O)Nc5ccc(F)cc5)CC4)cc3)c2cc1OC: 52.4% and 25.1%
CC(=O)O[C@H]1C[C@@]2(C)[C@@H](C[C@@H](O)[C@H]3[C@@]4(C)CC[C@@H](O)[C@@H](C)[C@@H]4CC[C@@]32C)/C1=C(\CCC=C(C)C)C(=O)O: 90.8%

Block 2
SMILES: Cc1cccc(/C=N/Nc2cc(N3CCOCC3)nc(OCCc3ccccn3)n2)c1
Cell line: L444P/L444P Gaucher fibroblasts
Technique: 4-MUG hydrolysis in lysate
Time: 72 h
Reference: vehicle
Quantity: enzyme activity
5 nM: 100% and 112% and 108% and 118% and 98.7% and 117% and 111%
0.5 µM, without ISRIB: 166% and 157% and 153% and 181% and 189% and 161% and 158% and 162%
50 nM: 195% and 171% and 158% and 154% and 159% and 168%

Block 3
Compound: COc1cc(Nc2c(C#N)cnc3cc(OCCCN4CCN(C)CC4)c(OC)cc23)c(Cl)cc1Cl
Read-out: enzyme activity
Mode: inhibitor
Tested at: 0.5 µM
Reference: control
Quantity: remaining activity
CAMKK2 (Homo sapiens, UniProt Q96RR4): 85.1%
cGMP-dependent protein kinase 1, isoform beta (PRKG1, Homo sapiens, UniProt Q13976): 94.9%
TGFBR2 (Homo sapiens, UniProt P37173): 95.7%
DAPK2 (Homo sapiens, UniProt Q9UIK4): 82.9%
DAPK1 (Homo sapiens, UniProt P53355): 106%
IKBKB (Homo sapiens, UniProt O14920): 95.4%
PRKCA (Homo sapiens, UniProt P17252): 49.5%

Block 4
Compound: CC(C)n1cnc(-c2ccc(F)cc2)c1-c1ncc(C(=O)Nc2ccc(N3CCN(C)CC3)cc2)[nH]1
Technique: phase 2a clinical trial
Host: idiopathic pulmonary fibrosis patients
Quantity: patients with TEAEs
refers to: muscular weakness; dose not given, grade 1, all drug arms; reference: patients: 1%
refers to: neoplasms (SOC); 60 mg once daily, grade 5 maximum intensity: 0%
refers to: infections and infestations; 60 mg once daily, grade 3 maximum intensity; reference: patients: 3%
refers to: infections and infestations; 60 mg once daily, grade 1 maximum intensity; reference: patients: 1%
refers to: reproductive and breast disorders; dose not given, grade 1, all drug arms; reference: patients: 1%
refers to: reproductive and breast disorders; 60 mg once daily, grade 3 maximum intensity: 0%
refers to: oral herpes; oral, dose not given, grade 1, all drug arms; reference: patients: 1%
refers to: back pain; 60 mg once daily, grade 2 maximum intensity; reference: patients: 1%
refers to: reproductive and breast disorders; 30 mg once daily, grade 2 maximum intensity: 0%
refers to: reproductive and breast disorders; 60 mg once daily, grade 4 maximum intensity: 0%

Block 5
SMILES: COCCOc1nc(-c2ccc(Cl)nc2)nc2c1CN(C(=O)c1ncn3ccccc13)CC2
Tested at: 0.1 µM
Quantity: remaining binding
AAK1 (Homo sapiens, UniProt Q2M2I8); binding: 100%
TAOK2 (Homo sapiens, UniProt Q9UL54); cell-free assay, competition with immobilised ligand: 99%
CSNK1G2 (Homo sapiens, UniProt P78368); cell-free assay, competition with immobilised ligand: 94%
CLK4 (Homo sapiens, UniProt Q9HAZ1); cell-free assay, competition with immobilised ligand: 100%
RIPK4 (Homo sapiens, UniProt P57078); cell-free assay, competition with immobilised ligand: 100%
TLK1 (Homo sapiens, UniProt Q9UKI8); cell-free assay, competition with immobilised ligand: 100%
CDC42BPA (Homo sapiens, UniProt Q5VT25); cell-free assay, competition with immobilised ligand: 100%
Tyrosine-protein kinase ABL1, non-phosphorylated (ABL1, Homo sapiens, UniProt P00519, H396P); cell-free assay, competition with immobilised ligand: 70%
EGFR (Homo sapiens, UniProt P00533, del747-750/T751S); cell-free assay, competition with immobilised ligand: 100%
FLT3 (Homo sapiens, UniProt P36888, R834Q); cell-free assay, competition with immobilised ligand: 65%
Cyclin-dependent kinase 4, with cyclin D1 (CDK4, Homo sapiens, UniProt P11802); cell-free assay, competition with immobilised ligand: 96%
TRPM6 (Homo sapiens, UniProt Q9BX84); cell-free assay, competition with immobilised ligand: 100%
TNIK (Homo sapiens, UniProt Q9UKE5); cell-free assay, competition with immobilised ligand: 100%
KIT (Homo sapiens, UniProt P10721, V559D); cell-free assay, competition with immobilised ligand: 100%
Tyrosine-protein kinase ABL1, non-phosphorylated (ABL1, Homo sapiens, UniProt P00519); cell-free assay, competition with immobilised ligand: 60%
TSSK3 (Homo sapiens, UniProt Q96PN8); cell-free assay, competition with immobilised ligand: 100%
WEE2 (Homo sapiens, UniProt P0C1S8); cell-free assay, competition with immobilised ligand: 100%
MAP3K1 (Homo sapiens, UniProt Q13233); cell-free assay, competition with immobilised ligand: 100%
PIM3 (Homo sapiens, UniProt Q86V86); cell-free assay, competition with immobilised ligand: 100%
MAP3K14 (Homo sapiens, UniProt Q99558); cell-free assay, competition with immobilised ligand: 100%
RAF1 (Homo sapiens, UniProt P04049); cell-free assay, competition with immobilised ligand: 97%
FLT3 (Homo sapiens, UniProt P36888, D835H); cell-free assay, competition with immobilised ligand: 100%
LCK (Homo sapiens, UniProt P06239); cell-free assay, competition with immobilised ligand: 100%
MAPK15 (Homo sapiens, UniProt Q8TD08); cell-free assay, competition with immobilised ligand: 100%
LIM domain kinase 2 (LIMK2, Homo sapiens, UniProt P53671); cell-free assay, competition with immobilised ligand: 100%

Block 6
SMILES: CCCCCCCCCCCCCCCCOP(=O)([O-])OCC[N+](C)(C)C
Quantity: inhibition
Leishmania donovani; high-content imaging; THP-1, MHOM/IN/80/DD8 intracellular amastigotes; 40 µM: 101%
Leishmania donovani; parasite growth, imaging; THP-1; 4 µM, intracellular, amastigote: 76% and 94% and 84% and 96% and 65% and 87%
Leishmania donovani; parasite growth, imaging; THP-1; 1 µM, intracellular, amastigote: 34% and 29% and 51% and 31% and 30%
THP-1; 4 µM, cytotoxicity: 7%

For quick reference, copied from above (block 1):
C[C@@H](O)[C@H]1C(=O)N2C(C(=O)O)=C(SCCN=CN)C[C@H]12: 96.8%
COc1ccccc1OCC(O)COC(N)=O (centres unmarked): 98.3%
O=C1O[C@H]([C@@H](O)CO)C(O)=C1O: 90.8%
COc1cc2nccc(Oc3ccc(NC(=O)C4(C(=O)Nc5ccc(F)cc5)CC4)cc3)c2cc1OC: 52.4% and 25.1%
COc1ccc(-c2nc3ccc(C4=NNC(=O)CC4C)cc3[nH]2)cc1 (centres unmarked): 9.11%
CCCCCCNC(=O)n1cc(F)c(=O)[nH]c1=O: 42.8%
Cn1c(=O)c2c(ncn2CC(=O)O)n(C)c1=O: 94.3%
CN1C2=CC(=O)/C(=N\NC(N)=O)C=C2CC1S(=O)(=O)O (centres unmarked): 87.2%
